# Results pooled from the literature.
# Every numbered part comes from another study and shows a few of its results, in no order. Changes are numbered by the printed parent chain.

# Sample 1 — method: RNA Bind-n-Seq; molecule type: RNA; sample: in vitro; concentration: 1 µM; setting: whole 134-nt RNA, ends assumed; with: 150 mM KCl; reference: input library; direction: higher = stronger binding
# Target: Ras GTPase-activating protein-binding protein 1, RRM domain (G3BP1, Homo sapiens, UniProt Q13283)
# Chain of UniProt Q13283 (whole entry, looked up): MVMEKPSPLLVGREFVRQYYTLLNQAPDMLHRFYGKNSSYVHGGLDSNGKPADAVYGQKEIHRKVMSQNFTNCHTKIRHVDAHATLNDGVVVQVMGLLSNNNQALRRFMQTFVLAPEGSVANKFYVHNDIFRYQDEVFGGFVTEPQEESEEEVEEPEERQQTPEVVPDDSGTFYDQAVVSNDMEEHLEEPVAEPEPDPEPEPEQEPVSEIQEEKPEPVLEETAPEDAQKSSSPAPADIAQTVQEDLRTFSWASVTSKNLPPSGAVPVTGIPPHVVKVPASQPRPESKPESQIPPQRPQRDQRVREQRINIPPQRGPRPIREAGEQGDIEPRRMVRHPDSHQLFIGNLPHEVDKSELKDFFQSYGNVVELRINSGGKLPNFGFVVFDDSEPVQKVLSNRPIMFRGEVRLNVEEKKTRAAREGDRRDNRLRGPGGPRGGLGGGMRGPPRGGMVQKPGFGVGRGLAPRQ
# All sequences stand within: GGGAGUUCUACAGUCCGACGAUC … UGGAAUUCUCGGGUGUCAAGG
Strand,log2 enrichment
AAGUCCUGUGCUACACAUCGUAUGUACCGAAUCGGGUUUGGGUUUUUUUGGGAGGGAAAGUAUUAUGUUACGCCGUUCGGAUCUGCACUU,0.631
UUUUCAUACCGAUCUAGAGUUCGUCCUUGCGUGGUUUAUGGUGGUGCCGAUAUUGGUCAGCAGAUUCGAGACUUGGAACGUGGAUGCCAU,0.00471
UGGGAGGUGGAUUUUGUUUAUUUUUUUAGCUAAUUUCCAGGGGUGGGAAUUUUUUUUUAAUAUGUGUCAUGAAUAAAGUUGUUUUUGAAA,1.41
UGGGAGGUGGAUUUUGUUUAUUUUUUUAGCUCAUUUCCAGGGGUGGGAAUUUUUUUUUAAUAUGUGUCAUGAUUAAAGUUGUUUUUGAAA,2
UCAAGUCCUGUGCUACACAUCGUAUGUACCGAAUCGGGGUUGGUUGGGGUUGGGAAAGUAUUAUGUUACGCCGUUCGGAUCUGCACUUCC,0.127
UCAAGUCCUGUGCUACACAUCGUAUGUACCGAAUCGGCCCGGCCCGGGCCCGGGGAAAGUAUUAUGUUACGCCGUUCGGAUCUGCACUUC,-0.569
CACAGACAAUACGCACCCACACAGACACAGAGGGAAGGGGUUGGGAUGGGGACAGGGUGCACAGCAGGGCGGGGUAGGACCCCAGCCCCU,-0.0225
UCAAGUCCUGUGCUACACAUCGUAUGUACCGAAUCGGCCGGGCCGGGGCCGGGGAAAGUAUUAUGUUACGCCGUUCGGAUCUGCACUUCC,-1.08
UCAAGUCCUGUGCUACACAUCGUAUGUACCGAAUCGGGAAAGGAAAGGGGAAAGGAAAGUAUUAUGUUACGCCGUUCGGAUCUGCACUUC,-0.305

# Sample 2 — target: CCNB2, cyclin fold, Cln2 fusion (human); method: yeast growth competition, sequencing; sample: yeast; setting: weak parent motif; reference: not given; direction: higher = stronger binding
# Starting sequence: GMNC docking peptide (human); KNAKRNLSSEFAN
Change,normalised enrichment score
KNACRNLSSEFAN [K4C],0.458
KNAKRNLSSNFAN [E10N],0.196
KQAKRNLSSEFAN [N2Q],0.949
KNAKRNLNSEFAN [S8N],0.777
KNAKRGLSSEFAN [N6G],0.481
KNAKRNLSSEMAN [F11M],0.94
KNAKRNLSQEFAN [S9Q],0.076
KNAKRNLVSEFAN [S8V],0.546
KNQKRNLSSEFAN [A3Q],0.544
KNADRNLSSEFAN [K4D],0.119
KNAKRNLSSCFAN [E10C],0.423
KNAFRNLSSEFAN [K4F],0.223
KNAKRNLSSDFAN [E10D],0.203
KNAKRNWSSEFAN [L7W],0.127
KNAKRNTSSEFAN [L7T],0.121
KNAKRNLSSEFLN [A12L],0.109
KNAKRNLSSSFAN [E10S],0.161
KNAKRNDSSEFAN [L7D],0.334

# Sample 3 — method: protein-binding microarray; molecule type: double-stranded DNA, one strand shown; sample: in vitro; concentration: not given; direction: higher = stronger binding
# Target: Runt-related transcription factor 1 (RUNX1, Homo sapiens, UniProt Q01196, residues 1-453, full length assumed)
# Chain of UniProt Q01196 (whole entry, looked up): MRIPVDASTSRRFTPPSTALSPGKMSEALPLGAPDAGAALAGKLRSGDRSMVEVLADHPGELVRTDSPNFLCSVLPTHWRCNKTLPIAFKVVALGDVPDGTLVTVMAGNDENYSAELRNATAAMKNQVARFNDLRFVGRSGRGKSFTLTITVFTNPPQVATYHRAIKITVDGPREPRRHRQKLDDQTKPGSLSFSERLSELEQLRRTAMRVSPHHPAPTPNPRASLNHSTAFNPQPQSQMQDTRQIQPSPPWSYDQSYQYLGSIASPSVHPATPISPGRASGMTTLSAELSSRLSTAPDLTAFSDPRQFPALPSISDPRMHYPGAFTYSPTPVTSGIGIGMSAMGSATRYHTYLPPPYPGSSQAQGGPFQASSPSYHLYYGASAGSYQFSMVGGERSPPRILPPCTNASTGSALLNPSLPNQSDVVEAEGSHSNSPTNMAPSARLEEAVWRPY
# Setting: k-mer, scored over probes, only values ≥0.25
Strand,E-score
CGGTTAA,0.293
CCCGCAA,0.331
ACCGCAA,0.497
GCCGCAA,0.338
CGCAACC,0.252
CGCGGTC,0.302
ATTTGCG,0.321
GTGGTCA,0.314
TCCCACA,0.309
CCTCAAC,0.258
AGCCGCA,0.27
ATACCAC,0.326
ACTGCGG,0.291
CACATTC,0.29
TGCCGCA,0.252
CCACAAA,0.422
ACACACA,0.25
GACCACA,0.425
GCGGTGA,0.298
GTGGTAA,0.403
AACCACA,0.487
CAACCAC,0.379
TACCACA,0.429
CACCACA,0.357
TACCGCA,0.48

# Sample 4 — method: competition protein-binding microarray; molecule type: double-stranded DNA, one strand shown; sample: in vitro; concentration: 2 µM; with: Pho4 competitor, 0.05 µM; direction: higher = stronger binding; all sequences stand within: … GTCTTGATTCGCTTGACGCTGCTG
# Target: Centromere-binding protein 1, full length, His-tagged (CBF1, Saccharomyces cerevisiae, UniProt P17106, residues 1-351)
# Chain of UniProt P17106 (whole entry, looked up): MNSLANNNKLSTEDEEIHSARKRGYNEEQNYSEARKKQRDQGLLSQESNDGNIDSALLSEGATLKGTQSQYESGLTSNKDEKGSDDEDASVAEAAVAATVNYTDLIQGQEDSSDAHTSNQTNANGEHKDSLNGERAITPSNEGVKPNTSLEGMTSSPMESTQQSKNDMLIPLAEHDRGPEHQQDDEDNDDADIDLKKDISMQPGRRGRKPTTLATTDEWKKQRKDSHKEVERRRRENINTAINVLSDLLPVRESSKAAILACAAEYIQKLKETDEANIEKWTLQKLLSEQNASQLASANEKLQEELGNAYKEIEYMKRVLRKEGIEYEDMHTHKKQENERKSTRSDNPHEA
# Setting: whole 60-bp probe, lowest competitor level
Strand,fluorescence intensity [a.u.]
TCATCGTCAGAACATCTCGTGACTCGAGCACTCGTC,804
AACCCGCTAACGAGTCACGTGGTGGTCAAGTAAGCA,10700
GTCTTGTCTCATTGGGGGGTGGGTGTCCCCACTTCA,80.7
CTAACGAAGGTTTGGGGCGTGGGTGACAAGCCAAGT,68.1
TACTTTAAAGATATACACGCACGGAAATGGTTCCAA,82.4
TCATGGCCTCATCGGCACGTTTACTGAAGACGACGC,79.6
CTTCTGTAAATTTGCTTAGTGGGTGGACGCGCCCCG,70.3
CGTCCTAGCGATTGACCGGTGGGTGCCATGAGGAAG,67.3
AATATTATTAAAAATTGCCGCTGTCATACTGTACGA,89.5
GGTCTCCTCGGTGAGAACGTGATGGGATAGCCGTTA,299
CTGGTCCTTCTTTATCACATGTCTTCATGGCTTTCA,636
TACCTAACCCATTTGCACGTGTCGGTAATAAGAAAA,2350
AGTGCGAACTACTGTTACGTGTGAATTGTAAAGGCG,81.2
CTTTCCCGATCTTGAATAGTGGGTGTAGCACATTTG,72.1
TTTGATCTGGTCTCAAACGTGTATCTGTGGGGGGTA,121
AGCGGAGTTTCGAATTCCGTGTCCTTCTGAGCGTAT,71.4
CATACCCAACCTTGACGCGTGGGTGAAGATATTTGT,78
GTTTCTTTATTAGTGCGGTGATATACCTCATATTAT,82.8
GTCTTGTCTCATTGGGGAGTGGGTGTCCCCACTTCA,100

# For quick reference, copied from above (sample 4):
Strand,fluorescence intensity [a.u.]
CATACCCAACCTTGACGCGTGGGTGAAGATATTTGT,78
TACCTAACCCATTTGCACGTGTCGGTAATAAGAAAA,2350
GGTCTCCTCGGTGAGAACGTGATGGGATAGCCGTTA,299
TTTGATCTGGTCTCAAACGTGTATCTGTGGGGGGTA,121
TCATGGCCTCATCGGCACGTTTACTGAAGACGACGC,79.6
